Assay results from different studies.
Compare with care: the assays were run in different laboratories. Numbers after ± are the reported error.

SMILES = COc1ccc(C2CC(c3ccc(C)cc3)=Nc3ccccc3S2)cc1OC (stereo not shown); system = Wistar rat, STZ-induced diabetes; setting = oral, 20 mg/kg once daily, day 21; endpoint = body weight; value = 181 ± 3.98 g
SMILES = [64Cu+2].c1ccc(CNCc2ccc(CN3CCCN4CCNCCCN(CC4)CC3)cc2)nc1; target or system = CXCR4 (human); system = NOD/SCID mice, U87 xenografts, small intestine; setting = 240 min post-injection; endpoint = tissue uptake; value = 4.73 ± 1.19 %ID/g
SMILES = CC(Cc1ccc(Cl)cc1)=C(c1ccc(Cl)cc1)c1ccc(OCCN(C)C)cc1; target or system = SNB-75; test = cell growth or viability, SRB; endpoint = GI50; value = 3.47 µM
SMILES = O=Cc1c(O)ccc2ccccc12; target or system = HUVEC; test = RNA sequencing, item: LRRC17; setting = 75 µM, 24 h; scale = baseline: DMSO; endpoint = log2 fold change; value = -4.07
SMILES = CC(=C(c1ccc(O)cc1)c1ccc(Cl)cc1)c1ccc(Cl)cc1; target or system = MDA-MB-435; test = cell growth or viability, SRB; endpoint = GI50; value = 0.6 µM
SMILES = C1=[N+]2CCCC[N+]3=Cc4ccc5[n]4[Au-]23[n]2c1ccc2-c1nc2ccccc2nc1-5.F[P-](F)(F)(F)(F)F; target or system = breast cancer cell lines; setting = NCI60 panel mean; endpoint = GI50; value = 5 µM
SMILES = CCCC(C)NC(=O)C(Nc1ccccc1C(=O)c1ccccc1)c1cn(C)c2ccccc12 (stereo not shown); target or system = MIA; test = cell growth or viability, MTT; setting = 72 h; endpoint = GI50; value = 6.9 µM
SMILES = CCN(CC)c1ccc(-c2csc3c(C(=O)c4ccc(OC)cc4)cc(=O)[nH]c23)cc1; target or system = most of six cancer lines; test = SRB; endpoint = GI50; value = < 20 µM
SMILES = CC/C=C\C/C=C\C/C=C\C/C=C\C/C=C\C/C=C\CCC(=O)Nc1ccn(C2OC(CO)C(O)C2(F)F)c(=O)n1 (stereo not shown); target or system = MDA-MB-435; test = cell growth or viability, SRB; endpoint = GI50; value = 0.311 µM
SMILES = COC1CN([C@H]2CC[C@H]([C@@]3(C)Oc4c(Cl)cc(C(=O)NCc5c(SC)cc(C)[nH]c5=O)c(C)c4O3)CC2)C1; target or system = J82; test = cell growth or viability, ATP luminescence; setting = 12 days; endpoint = GI50; value = > 1 µM
SMILES = C[n+]1ccc(/C=N/NC(=O)c2cncc(C(=O)N/N=C/c3cc[n+](C)c4ccccc34)n2)c2ccccc21; target or system = A549 cisplatin-resistant; test = CellTiter-Glo; setting = 96 h; endpoint = GI50; value = 64.5 ± 2.9 µM
SMILES = COc1ccc(C2CC(c3ccc(C)cc3)=Nc3ccccc3S2)cc1 (stereo not shown); system = Wistar rat, STZ-induced diabetes; setting = oral, 20 mg/kg once daily, day 14; endpoint = body weight; value = 188 ± 4.21 g
SMILES = C[n+]1cc(NC(=O)c2ccc3ccc4ccc(C(=O)Nc5cc6ccccc6[n+](C)c5)nc4c3n2)cc2ccccc21; target or system = A549 cisplatin-resistant; test = CellTiter-Glo; setting = 96 h; endpoint = GI50; value = 6.6 ± 0.6 µM
SMILES = NC12CCN(C(=O)c3cc(-c4cccc5c4CCC5)no3)CC1C2 (stereo not shown); target or system = LS180; test = cell growth or viability, MTT; setting = 48 h; endpoint = GI50; value = ~6 µM
SMILES = CCN(CC)c1ccc(-c2csc3c(C(=O)c4ccc(C)cc4)cc(=O)[nH]c23)cc1; target or system = most of six cancer lines; test = SRB; endpoint = GI50; value = < 20 µM
SMILES = O=C(/C=C/c1coc2ccccc2c1=O)N1CCN(C(=S)SC2CC2)CC1; target or system = tomato spotted wilt virus; test = viral infection, half-leaf method; system = Nicotiana glutinosa; setting = 500 µg/mL; endpoint = protective effect; value = 54.9 ± 3.4%

Excerpt of the above:
SMILES = C1=[N+]2CCCC[N+]3=Cc4ccc5[n]4[Au-]23[n]2c1ccc2-c1nc2ccccc2nc1-5.F[P-](F)(F)(F)(F)F; target or system = breast cancer cell lines; setting = NCI60 panel mean; endpoint = GI50; value = 5 µM
SMILES = CCN(CC)c1ccc(-c2csc3c(C(=O)c4ccc(OC)cc4)cc(=O)[nH]c23)cc1; target or system = most of six cancer lines; test = SRB; endpoint = GI50; value = < 20 µM
